Published values collected from several papers.
Each line is one published result; not all experiments were run side by side. Several values in a cell are separate wells, animals, samples, runs or records. Numbers after ± are the reported error.

O=C1CC[C@@]2(O)[C@H]3Cc4ccc(O)c5c4[C@@]2(CCN3CC2CC2)[C@H]1O5 — Cmax (hairless guinea pig, plasma; topical, 0.5 mL of 16% gel): 7.5 ± 2.5 ng/mL
CC(C)=CCC[C@](C)(O[C@@H]1O[C@H](CO)[C@@H](O)[C@H](O)[C@H]1O)[C@H]1CC[C@]2(C)[C@@H]1[C@H](O)C[C@@H]1[C@@]3(C)CC[C@H](O[C@@H]4O[C@H](CO)[C@@H](O)[C@H](O)[C@H]4O[C@@H]4O[C@H](CO)[C@@H](O)[C@H](O)[C@H]4O)C(C)(C)[C@@H]3CC[C@]12C — Cmax (LC-MS/MS; healthy volunteers, serum; oral, 3 g red ginseng): 1.77 ± 2.09 ng/mL
CO[C@H]1C[C@@H]2CC[C@@H](C)[C@@](O)(O2)C(=O)C(=O)N2CCCC[C@H]2C(=O)O[C@H]([C@H](C)C[C@@H]2CC[C@@H](OP(C)(C)=O)[C@H](OC)C2)CC(=O)[C@H](C)/C=C(\C)[C@@H](O)[C@@H](OC)C(=O)[C@H](C)C[C@H](C)/C=C/C=C/C=C/1C — Cmax (HPLC-MS/MS; Japanese patients, whole blood; oral, 40 mg, day 1, cycle 1, geometric mean): 187 ng/mL
O=C(c1cc(Cc2n[nH]c(=O)c3ccccc23)ccc1F)N1CCN(C(=O)C2CC2)CC1 — Cmax (cancer patients; oral, 400 mg twice daily, day 1): 5100 ± 1700 ng/mL
Cc1nc2cccc(N)c2c(=O)n1C1CCC(=O)NC1=O (centres unmarked) — Cmax (healthy adults, plasma; oral, 3 mg, geometric mean, together with: fluvoxamine 50 mg twice daily): 75.3 ng/mL
CCC(CC)O[C@@H]1C=C(C(=O)O)C[C@H](N)[C@H]1NC(C)=O — Cmax (healthy Indian subjects, fed, plasma; oral, 75 mg oseltamivir phosphate, reference capsule formulation, Tamiflu): 249 ± 63 ng/mL
COc1ccc2[nH]c([S+]([O-])Cc3ncc(C)c(OC)c3C)nc2c1 (centres unmarked) — Cmax (healthy Chinese, CYP2C19 *3/*17, plasma; oral, 20 mg single dose): 310 ± 129 ng/mL
Cc1nc(-c2ccc(OCC(C)C)c(C#N)c2)sc1C(=O)O — Cmax (healthy Chinese adult volunteers, plasma; oral, 80 mg single dose, fed): 3430 ± 1150 ng/mL
CC1Cc2ccccc2N1NC(=O)c1ccc(Cl)c(S(N)(=O)=O)c1 (centres unmarked) — Cmax (healthy Chinese volunteers, whole blood; oral, 1.25 mg, fasting, together with: perindopril tert-butylamine 4 mg): 62 ± 10.8 ng/mL
Cc1nc(-c2ccc(OCC(C)C)c(C#N)c2)sc1C(=O)O — Cmax (healthy men, plasma; oral, 80 mg once daily, day 14, arithmetic mean, together with: verinurad 2.5 mg): 1750 ng/mL
N[C@@H](Cc1ccc(O)c(O)c1)C(=O)O — Cmax (rhesus and cynomolgus macaque, plasma; subcutaneous, dose not given, PDE9 inhibitor vehicle co-dosed): 86.5 ng/mL and 79.2 ng/mL
Nc1nc(NC2CC2)c2ncn([C@H]3C=C[C@@H](CO)C3)c2n1 — Cmax (HIV-infected children and adolescents, Tanner stage 3-5, plasma; oral, 8 mg/kg): 3400 ng/mL
CCOc1ccc(Cc2cc([C@@H]3S[C@H](CO)[C@@H](O)[C@H](O)[C@H]3O)c(OC)cc2C)cc1 — Cmax (Japanese type 2 diabetes patients, plasma; oral, 5 mg single dose, eGFR 45-59 mL/min/1.73 m^2): 252 ± 67.5 ng/mL
C[C@@H](O)[C@H]1C(=O)N2C(C(=O)O)=C(S[C@@H]3CN[C@H](C(=O)N(C)C)C3)[C@H](C)[C@H]12 — Cmax (microdialysis; pig (Danish Landrace), cancellous bone; iv infusion, 1000 mg over 10 min, together with: vancomycin co-administered): 14000 ng/mL
Cc1cc(Nc2cc3ncccc3c(N[C@@H]3C[C@H]4CC[C@@H](C3)N4CCC#N)n2)n[nH]1 — Cmax (pregnant rabbit, maternal plasma; oral, 30 mg/kg/day, gestation day 7): 40.3 ng/mL
CS(=O)(=O)n1cc2c(n1)CN([C@H]1CO[C@H](c3cc(F)ccc3F)[C@@H](N)C1)C2 — Cmax (healthy Japanese men, plasma; oral, 1 mg once weekly, day 15): 21.2 nM
COc1cc2c3c(n(CCCN4CCOCC4)c(=O)c2cc1OC)-c1cc2c(cc1C3=O)OCO2 — Cmax (patients, plasma; intravenous infusion, 10 mg/m^2 daily over 1 h, cycle 1 day 3): 347 ng/mL
CCCC[C@H](NC(C)=O)C(=O)N[C@H]1CCC(=O)NC[C@@H](C(=O)N[C@@H](Cc2c[nH]c3ccccc23)C(N)=O)NC(=O)[C@H](CCCNC(=N)N)NC(=O)[C@@H](Cc2ccccc2)NC(=O)[C@H](Cc2c[nH]cn2)NC1=O — Cmax (healthy volunteers, plasma; subcutaneous, 3.0 mg once daily, day 7, steady state median): 52.7 ng/mL
C[C@@H](N)c1cc(Cl)ccc1Cn1c(=S)[nH]c(=O)c2[nH]ccc21 — Cmax (healthy Japanese volunteers, plasma; oral, 5 mg once daily, day 10, geometric mean): 37.4 nM
Cc1ccc(NC(=O)c2ccc(CN3CCN(C)CC3)cc2)cc1Nc1nccc(-c2cncc(-c3oncc3C)c2)n1 — Cmax (healthy volunteers, plasma; oral, 25.0 mg once daily, day 1, 7-day dosing, mean): 1040 ng/mL
O=C1Nc2c(C(=O)O)ccnc2N(C2CC2)c2ncccc21 — Cmax (olive baboon (Papio anubis), non-pregnant, serum; oral, 400 mg nevirapine, tablet): 264 ± 17 ng/mL
CN1C(=O)[C@@H](NC(=O)c2nnc(Cc3ccccc3)[nH]2)COc2ccccc21 — Cmax (healthy men, plasma; oral, 60 mg once daily, day 14, geometric mean): 646 ng/mL
CC1=C2C[C@H]3[C@@H](CC[C@@H]4C[C@H](NS(C)(=O)=O)CC[C@@]43C)[C@@H]2CC[C@@]2(C1)O[C@@H]1C[C@H](C)CN[C@H]1[C@H]2C — Cmax (patients, plasma; oral, 90 mg single, day -7, cycle 1): 20.2 ng/mL
COc1ccc2c3c1O[C@H]1C[C@@H](OC(=O)c4ccccc4)C=C[C@@]31CCN(C)C2 — Cmax (healthy young men, plasma; intranasal, 11 mg, single dose): 19.4 ng/mL
O=C(C1CCCCC1)N1CC(=O)N2CCc3ccccc3[C@H]2C1 — Cmax (healthy men, plasma; oral, 40 mg/kg racemic praziquantel, geometric mean, without ritonavir): 1170 ng/mL
CC(C)C(=O)OCC(=O)[C@@]12O[C@H](C3CCCCC3)O[C@@H]1C[C@H]1[C@@H]3CCC4=CC(=O)C=C[C@]4(C)[C@H]3[C@@H](O)C[C@@]12C — Cmax (children with asthma, serum; inhalation with spacer, 160 µg, day 7, steady state): 0.192 ± 0.022 ng/mL
N[C@@H](CC(=O)N1CCn2c(nnc2C(F)(F)F)C1)Cc1cc(F)c(F)cc1F — Cmax (healthy Korean subjects, plasma; oral, 100 mg single dose, ABCB1 G2677T/A GA): 470 ± 100 ng/mL
CN1CCN(c2ccc3nc(-c4c(N)c5c(F)cccc5[nH]c4=O)[nH]c3c2)CC1 — Cmax (patients, plasma; oral, 300 mg daily 5 days on 2 off, day 19, minimum, together with: gemcitabine and capecitabine): 80.1 ng/mL
Cc1ccc(Sc2ccccc2N2CCNCC2)c(C)c1 — Cmax (healthy men, plasma; oral, 5 mg once daily, fed, day 12): 8 ng/mL
Cc1ccnc2c1NC(=O)c1cccnc1N2C1CC1 — Cmax (olive baboon female, serum; oral, 10 mg/kg, solution): 594 ± 371 ng/mL
O=C1c2cccc3c2[C@H](CCC3)CN1[C@@H]1CN2CCC1CC2 — Cmax (healthy volunteers, plasma; oral, 0.50 mg single dose, mean, together with: netupitant 300 mg fixed combination): 1.18 ng/mL
NC(=O)c1cnc2[nH]ccc2c1N[C@@H]1[C@@H]2CC3C[C@H]1C[C@@](O)(C3)C2 — Cmax (Japanese, normal hepatic function, plasma; oral, 150 mg single dose, mean): 350 ng/mL
NC(=O)c1cnc2[nH]ccc2c1N[C@@H]1[C@@H]2CC3C[C@H]1C[C@@](O)(C3)C2 — Cmax (healthy Caucasian men, plasma; oral, 60 mg, single dose fasted): 131 ng/mL
CCc1cc2c(cc1N1CCC(N3CCOCC3)CC1)C(C)(C)c1[nH]c3cc(C#N)ccc3c1C2=O — Cmax (severe hepatic impairment patients, plasma, total; oral, 300 mg single dose, fed): 93.5 ng/mL
C[C@H]1Oc2cc(cnc2N)-c2c(nn(C)c2C#N)CN(C)C(=O)c2ccc(F)cc21 — Cmax (healthy adults; oral tablet, 100 mg single dose, fasted, adjusted geometric mean): 533 ng/mL
CO/N=C1\C[C@]2(C[C@@H]3C[C@@H](C/C=C(\C)C[C@@H](C)/C=C/C=C4\CO[C@@H]5[C@H](O)C(C)=C[C@@H](C(=O)O3)[C@]45O)O2)O[C@H](/C(C)=C/C(C)C)[C@H]1C — Cmax (parasitized Corriedale lambs, plasma; oral, 0.2 mg/kg, together with: closantel 10 mg/kg oral): 21.9 ± 15.8 ng/mL
C[C@]12C=CC(=O)C=C1CC[C@@H]1[C@@H]2[C@@H](O)C[C@@]2(C)[C@H]1C[C@H]1O[C@@H](C3CCCCC3)O[C@]12C(=O)CO — Cmax (children with asthma, serum; inhaled, 160 µg ciclesonide, day 7, HFA-MDI with spacer, steady state): 0.208 ± 0.012 ng/mL
COc1cccc(N2CCN(C3=Nc4c(F)cccc4[C@H](CC(=O)O)N3c3cc(C(F)(F)F)ccc3OC)CC2)c1 — Cmax (healthy women, plasma; intravenous infusion, 240 mg, day 1, single dose, 30-min infusion): 14700 ± 1210 ng/mL
CC(C)=CCC[C@](C)(O[C@@H]1O[C@H](CO)[C@@H](O)[C@H](O)[C@H]1O)[C@H]1CC[C@]2(C)[C@@H]1[C@H](O)C[C@@H]1[C@@]3(C)CC[C@H](O[C@@H]4O[C@H](CO)[C@@H](O)[C@H](O)[C@H]4O)C(C)(C)[C@@H]3CC[C@]12C — Cmax (LC-MS/MS; healthy volunteers, serum; oral, 3 g red ginseng): 0.68 ± 0.32 ng/mL
COc1cc(OC)c(/C=C/S(=O)(=O)Cc2ccc(OC)c(NCC(=O)O)c2)c(OC)c1 — Cmax (cancer patients, phase I, plasma; oral, 700 mg twice daily, day 21 cycle 1): 2340 ± 1280 ng/mL
Cc1c(Cl)c(C)[n+]([O-])c(Cl)c1-c1noc(-c2cc(O)c(O)c([N+](=O)[O-])c2)n1 — Cmax (Parkinson's disease patients, plasma; oral, 50 mg, day 1, after first dose): 465 ± 458 ng/mL
CN[C@H](CC(C)C)C(=O)N[C@H]1C(=O)N[C@@H](CC(N)=O)C(=O)N[C@H]2C(=O)N[C@H]3C(=O)N[C@H](C(=O)N[C@H](C(=O)O)c4cc(O)cc(O)c4-c4cc3ccc4O)[C@H](O)c3ccc(c(Cl)c3)Oc3cc2cc(c3O[C@@H]2O[C@H](CO)[C@@H](O)[C@H](O)[C@H]2O[C@H]2C[C@](C)(N)[C@H](O)[C@H](C)O2)Oc2ccc(cc2Cl)[C@H]1O — Cmax (microdialysis; pig (Danish Landrace), cortical bone; iv infusion, 1000 mg over 100 min, together with: meropenem co-administered): 7000 ng/mL
CC(C)(Sc1ccncc1-c1ccc(C#N)c2ccccc12)C(=O)O — Cmax (healthy Japanese male subjects, plasma; oral, 5 mg single dose, day 1, fasted, geometric mean): 7.3 ng/mL
CCOc1ccc2cc(-c3nn(CC4CCN(C)CC4)c4ncnc(N)c34)ccc2c1 — Cmax (LC-MS/MS; Neospora caninum-infected pregnant sheep, plasma; oral, 100 mg/kg, after dose 2): 2100 ± 700 nM

Excerpt of the above:
CN1C(=O)[C@@H](NC(=O)c2nnc(Cc3ccccc3)[nH]2)COc2ccccc21 — Cmax (healthy men, plasma; oral, 60 mg once daily, day 14, geometric mean): 646 ng/mL
CC1=C2C[C@H]3[C@@H](CC[C@@H]4C[C@H](NS(C)(=O)=O)CC[C@@]43C)[C@@H]2CC[C@@]2(C1)O[C@@H]1C[C@H](C)CN[C@H]1[C@H]2C — Cmax (patients, plasma; oral, 90 mg single, day -7, cycle 1): 20.2 ng/mL
COc1ccc2c3c1O[C@H]1C[C@@H](OC(=O)c4ccccc4)C=C[C@@]31CCN(C)C2 — Cmax (healthy young men, plasma; intranasal, 11 mg, single dose): 19.4 ng/mL
O=C(C1CCCCC1)N1CC(=O)N2CCc3ccccc3[C@H]2C1 — Cmax (healthy men, plasma; oral, 40 mg/kg racemic praziquantel, geometric mean, without ritonavir): 1170 ng/mL
CC(C)C(=O)OCC(=O)[C@@]12O[C@H](C3CCCCC3)O[C@@H]1C[C@H]1[C@@H]3CCC4=CC(=O)C=C[C@]4(C)[C@H]3[C@@H](O)C[C@@]12C — Cmax (children with asthma, serum; inhalation with spacer, 160 µg, day 7, steady state): 0.192 ± 0.022 ng/mL
N[C@@H](CC(=O)N1CCn2c(nnc2C(F)(F)F)C1)Cc1cc(F)c(F)cc1F — Cmax (healthy Korean subjects, plasma; oral, 100 mg single dose, ABCB1 G2677T/A GA): 470 ± 100 ng/mL
CN1CCN(c2ccc3nc(-c4c(N)c5c(F)cccc5[nH]c4=O)[nH]c3c2)CC1 — Cmax (patients, plasma; oral, 300 mg daily 5 days on 2 off, day 19, minimum, together with: gemcitabine and capecitabine): 80.1 ng/mL
